Assay results from different studies.
Protocols differ between the studies behind these lines. “And” joins repeats or separate records; there may be more than shown. Numbers after ± are the reported error.
TOP2A: DNA topoisomerase 2-alpha (TOP2A, Homo sapiens, UniProt P11388)
BEST2: Bestrophin-2a (BEST2, Homo sapiens, UniProt Q8NFU1)
MKC1: Mitogen-activated protein kinase MKC1 (MKC1, Candida albicans, UniProt P43068)
PKN1: Serine/threonine-protein kinase N1 (PKN1, Homo sapiens, UniProt Q16512)
DDB1: DNA damage-binding protein 1 (DDB1, Homo sapiens, UniProt Q16531)
Cereblon/Ikaros: Cereblon/Ikaros (Homo sapiens, UniProt Q13422+Q96SW2)
Pteridine reductase 1: Pteridine reductase 1 (Leishmania major, UniProt Q01782)
DSTYK: Dual serine/threonine and tyrosine protein kinase (DSTYK, Homo sapiens, UniProt Q6XUX3)
T1: DNA junction; chain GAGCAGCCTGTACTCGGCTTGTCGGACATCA; chain TCTGATGTGGCTGC; chain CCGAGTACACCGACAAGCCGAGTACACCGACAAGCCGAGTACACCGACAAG

O=c1nc(SCc2cc(F)cc(C(F)(F)F)c2)nc(SCc2cccc(C(F)(F)F)c2)[nH]1  decatenated DNA (TOP2A; decatenation; 15.6 µM, replicate 1): 36.4%
O=C(O)C1=CCNCC1  current density (BEST2; whole-cell patch clamp; HEK293 transiently expressing channel; concentration not given, membrane potential -100 mV): -241 pA/pF and -187 pA/pF and -189 pA/pF and -492 pA/pF and -240 pA/pF
CN1CCN(c2cc(-c3ccncc3)c(-c3ccc4ccccc4c3)nn2)CC1  activation (FPR1 (Homo sapiens, UniProt P21462); agonist, FLIPR; 12.5 µM): 0.9%
c1coc(-c2n[nH]cc2-c2ccnc3ccccc23)c1  log2 fold change (MKC1; kinase binding, MIB/MS competition; Candida albicans lysate; 1 µM; baseline: DMSO, negative = stronger binding): -0.34
CC[n+]1c(-c2ccccc2)c2cc(N)ccc2c2ccc(N)cc21  binding (T1, DNA junction; fluorescence enhancement; 20 °C, Mg2+ 12.5 mM, ethidium displacement): binds
O=C(Nc1ncnc2c1ncn2[C@@H]1O[C@@H]2COP(=O)(O)OC2C1O)c1ccccc1 (stereo in doubt)  relative binding affinity (anti-cGMP antibody; antibody binding, competitive cGMP EIA; concentration not given, acetylated samples; baseline: EC50 cGMP over EC50 cpd, higher = stronger binding): 0.0007
CC[C@@H]1[C@H](F)C(=O)N[C@@H]1COc1nccc2cc(C(N)=O)c(OC)cc12  inhibition (PKN1; ATP-site probe binding, ActivX profiling; THP-1 cell lysate; 0.04 mM, Lys1 site): 3.4%
CC(C)c1ccc(CSc2nc(SCc3ccc4sccc4c3)[nH]c(=O)n2)cc1  decatenated DNA (TOP2A; decatenation; 7.8 µM, replicate 1): 100%
COc1cc(OC)cc(-c2cc(C(C)=O)n3ccccc23)c1  delta Tm (BRD9 (Homo sapiens, UniProt Q9H8M2); thermal stability, thermal shift; 200 µM, together with: protein 10 µM): 6.5 °C
Cc1nc(CSc2nc(SCc3cc(F)cc(C(F)(F)F)c3)nc(=O)[nH]2)cs1  mean decatenated DNA (TOP2A; decatenation; 31.25 µM): 90.5%
N#Cc1ccc2c(-c3ccncc3)c(-c3ccc(F)cc3)nn2c1  log2 fold change (MKC1; kinase binding, competitor, MIB/MS competition, item: MKC1; Candida albicans cell lysate; 100 nM; baseline: DMSO): 0.382
O=c1cc(-c2ccc(OS(=O)(=O)O)cc2)oc2cc(OS(=O)(=O)O)cc(OCc3cccc(COc4cc(OS(=O)(=O)O)cc5oc(-c6ccc(OS(=O)(=O)O)cc6)cc(=O)c45)n3)c12  Km (Neutrophil elastase (ELANE, Homo sapiens, UniProt P08246); 500 nM, together with: chromogenic substrate): 788 ± 66 µM
C[C@@H]1C[C@H](Nc2ccccc2)c2cc(F)ccc2N1C(=O)c1ccc(C#N)nc1  pIC50 Z-score (Ecdysone receptor (Aedes albopictus, UniProt Q9U3Y4); ligand binding, inhibitor; intact cells; together with: [3H]ponasterone A; direction not given): 1.36
COCCC(=O)N1CCC(Oc2ccccc2)C1 (stereo not shown)  log fold enrichment (DNA (cytosine-5)-methyltransferase 3A, PWWP domain (DNMT3A, Homo sapiens, UniProt Q9Y6K1); binding, affinity selection mass spectrometry; baseline: other proteins in batch): -0.143
CC(C)C(=O)Nc1n[nH]c2cc(-c3cccc(NS(=O)(=O)C4CC4)c3)ccc12  Hill slope (PIP5K1C (Homo sapiens, UniProt O60331); kinase activity, ADP-Glo): -1.23
CC(C)N(CCC(=O)c1ccc2ccccc2c1)Cc1ccccc1  potency reduction (TGM2 (Homo sapiens, UniProt P21980); enzyme activity, inhibitor; concentration not given, together with: DTT; baseline: without DTT over with DTT): ~300 fold
CC1(C)CC2(C)OC(=O)NC2(C)c2ccccc21 (stereo not shown)  log fold enrichment (DDB1; binding, affinity selection mass spectrometry; baseline: other proteins in batch): -0.313
CC(=O)OC[C@H](COc1ccc(C(C)(C)c2ccc(OC[C@@H](CCl)OC(C)=O)cc2)cc1)OC(C)=O  response (Androgen receptor (AR, Homo sapiens, UniProt P10275); antagonist, nuclear translocation; 100 µM; baseline: control): < 24%
O=C(O)c1ccc(Nc2ncc3c(n2)-c2ccc(Cl)cc2C(c2c(F)cccc2F)=NC3)cc1  remaining activity (human SRPK1(h); kinase activity; 1 µM): 105%
CC1=C(/C=C/C(C)=C/C=C/C(C)=C/C(=O)O)C(C)(C)CCC1  binding affinity fold decrease (CRABP2 (Homo sapiens, UniProt P29373, R133K/Y135F); tryptophan fluorescence quenching; concentration not given; baseline: R132K:Y134F versus wild type, higher = weaker binding): ~50 fold
COc1cc(Nc2nccc(-c3cnn4nc(OC)ccc34)n2)cc(C(F)(F)F)c1  binding (HIPK1 (Homo sapiens, UniProt Q86Z02); NanoBRET target engagement; live cells; concentration not given, no binding): no binding
O=c1nc(SCc2ccc(C(F)(F)F)cc2)nc(SCc2ccc3sccc3c2)[nH]1  decatenated DNA (TOP2A; decatenation; 7.8 µM, replicate 2): 100%
CCC(C)(NCCc1ccc(Cl)c(Cl)c1)c1cccc(NC2=CC(=O)N(C3CCC(=O)NC3=O)C2=O)c1 (stereo not shown)  Dmax (Cereblon/Ikaros; protein degradation, degrader, HiBiT luminescence; Jurkat): 75%
CC(C)=CCC/C(C)=C/C=C/C(C)=C/C=C/C(C)=C/C=C/C=C(C)/C=C/C=C(C)/C=C/C=C(\C)CCC=C(C)C  number of binding sites (Beta-lactoglobulin (LGB, Bos taurus, UniProt P02754); fluorescence quenching; concentration not given, 298 K): 1.4
Nc1nc2c(ncn2[C@@H]2O[C@H](COP(=O)(O)O)[C@@H](O)[C@H]2O)c(=O)[nH]1  reaction rate (GUK1 (Homo sapiens, UniProt Q16774, R44A); enzyme activity, NADH-coupled; 15.62 µM): -0.839 s⁻¹ and -0.763 s⁻¹ and -0.827 s⁻¹
Nc1nc(N)c2nc(CNc3ccc(C(=O)N4CCC(C(=O)O)CC4)cc3)cnc2n1  partition index (Pteridine reductase 1; hDHFR weight 10; baseline: LmPTR1, LmDHFR over hDHFR, 1.0 selective, 0.0 non-selective): 0.89
CC(=O)N[C@H](C(=O)N1C[C@H](O)C[C@H]1C(=O)NCc1ccc(-c2scnc2C)cc1)C(C)(C)SCCCCCCNC(=O)C[C@@H]1N=C(c2ccc(Cl)cc2)c2c(sc(C)c2C)-n2c(C)nnc21  ΔpKd ternary minus binary (BRD2/VHL, BD2; with VCB (Homo sapiens, UniProt P25440+P40337); ternary complex binding, ITC; 25 °C, unit not given, together with: VHL-ElonginB-ElonginC, PROTAC:Brd2^BD2; baseline: binary binding to VHL-ElonginB-ElonginC, positive = cooperative): 0.61 ± 0.05
C=C(NC(=O)C(=C)NC(=O)c1csc(C2=N[C@@H]3c4csc(n4)[C@H]4NC(=O)c5csc(n5)[C@H]([C@](C)(O)[C@@H](C)O)NC(=O)[C@H]5CSC(=N5)/C(=C/C)NC(=O)[C@H]([C@@H](C)O)NC(=O)c5csc(n5)[C@]3(CC2)NC(=O)[C@H](C)NC(=O)C(=C)NC(=O)[C@H](C)NC(=O)[C@H]([C@@H](C)CC)N[C@@H]2C=Cc3c([C@H](C)O)cc(nc3[C@H]2O)C(=O)O[C@@H]4C)n1)C(N)=O  activity decrease (PSMB5 (Homo sapiens, UniProt P28074); chymotrypsin-like activity, inhibitor; purified 20S proteasome; 20 µM, 1 h, 37 °C): > 70%
Cc1c(COc2ccc(CN3CCCCC3C(=O)NCCCCNC(=O)CN(C)CCCC34CCC(c5ccccc53)c3ccccc34)cc2Br)cccc1-c1ccccc1 (stereo not shown)  degradation (CD274 (Homo sapiens, UniProt Q9NZQ7); degrader, western blot; HL-60; 1 µM): 14.4 ± 1.2%
CC1(COc2ccc3c(c2)ncn3-c2ccc3cccc(N4CCC(N)CC4)c3n2)COC1  Hill slope (PKN1; inhibitor): -0.646
CCN(Cc1cnc2nc(N)nc(N)c2n1)c1ccc(C(=O)c2ccccc2)cc1  partition index (Pteridine reductase 1; hDHFR weight 10; baseline: LmPTR1, LmDHFR over hDHFR, 1.0 selective, 0.0 non-selective): 0.89
c1ccc(C(NCc2cccnc2)(c2ccccc2)c2ccccc2)cc1  Hill coefficient (KCNQ1 (Homo sapiens, UniProt P51787); ion current, inhibitor, whole-cell patch clamp; tsA201; current at end of depolarization, leak-subtracted): 0.71
N[C@@H](CCO)C(=O)O  thermal shift (Uncharacterized protein (Pelagibacter ubique, UniProt Q4FM26); differential scanning fluorimetry; Candidatus Pelagibacter ubique; in-house screen): 5.02 °C and 2.62 °C
NCCCC(=O)O  normalised MST signal (SLC6A6 (Homo sapiens, UniProt P31641, L306A); binding, microscale thermophoresis; 1 mM, room temperature, together with: 50 nM labelled protein; higher = more binding): 0.612
O=c1nc(SCc2cc(F)cc(C(F)(F)F)c2)nc(SCc2nc3ccccc3[nH]2)[nH]1  decatenated DNA (TOP2A; decatenation; 31.25 µM, replicate 1): 54.4%
Cc1ccccc1C1CC(=O)c2c(C)nc(N)nc2C1 (stereo not shown)  log fold enrichment (DDB1; binding, affinity selection mass spectrometry; baseline: other proteins in batch): -0.0483
CCC(=O)NS(=O)(=O)c1ccc(-c2c(-c3ccccc3)noc2C)cc1  activation (Bile acid receptor (NR1H4, Homo sapiens, UniProt Q96RI1); reporter gene, Gal4 hybrid reporter; 50 µM; baseline: vehicle): 1.35 fold
Nc1ccc(C(=O)O)cc1  current density (BEST2; whole-cell patch clamp; HEK293 transiently expressing channel; concentration not given, membrane potential -100 mV): -396 pA/pF and -74.3 pA/pF and -254 pA/pF and -335 pA/pF and -175 pA/pF and -295 pA/pF
Nc1ncc2c(n1)-c1c([nH]c3ccc(-c4ccc(F)cc4)cc13)CCC2  remaining binding (DSTYK; DiscoverX scanMAX; 1 µM; baseline: untreated control): 23%
Cl.c1cc(N2CCC(N3CCOCC3)CC2)ccc1Nc1ccc2ncc(OCC3CCNCC3)nc2c1  activity (Protein AF-9, with DOT1L (Homo sapiens, UniProt P42568); inhibitor, AlphaLISA; 10 µM): inactive
O=C(O)c1cc2ccc(C#CC3(O)CCCCC3)cc2n1-c1ccccc1  -TΔS (Microphthalmia-associated transcription factor, residues 1-296 (Homo sapiens, UniProt O75030); isothermal titration calorimetry; 25 °C): 78.7 kJ/mol and 51.5 kJ/mol
O=c1nc(SCc2cc(F)cc(C(F)(F)F)c2)nc(SCc2ccc3ncsc3c2)[nH]1  mean decatenated DNA (TOP2A; decatenation; 15.6 µM): 93.7%
N#CCNC(=O)c1ccc(-c2ccnc(Nc3ccc(N4CCOCC4)cc3)n2)cc1  Hill slope (PKN1; inhibitor): -0.623
O=C(COP(=O)(O)O)[C@@H](O)[C@H](O)[C@H](O)COP(=O)(O)O  thermal stability ratio (GLUD1 (Homo sapiens, UniProt P00367); thermal proteome profiling; HepG2 cell lysate; concentration not given, 57 over 37 °C; baseline: compound over control): 2.75 and 2.43 and 7.1
C=CC(=O)N1CCC(COCC(=O)N2CCN(c3nc(-c4cnc(N)nc4C(F)F)nc(N4CCOC[C@@H]4C)n3)CC2)CC1  remaining binding (DSTYK; KINOMEscan; 1 µM): 100%
CSc1ccc2c(c1)N(CCC1CCCCN1C)c1ccccc1S2 (stereo not shown)  Hill slope (KCNK2 (Homo sapiens, UniProt O95069); PIP2 binding, BRET competition; together with: FL-PIP2 500 nM): 1.14 ± 0.15
Nc1ncnc2c1ncn2[C@@H]1O[C@H](COP(=O)(O)CP(=O)(O)OP(=O)(O)O)[C@@H](O)[C@H]1O  specific binding (P2X purinoceptor 1 (P2RX1, Homo sapiens, UniProt P51575, K215A); saturation binding; HEK293; 130 nM): 5250 CCPM and 4290 CCPM
CCC(C)(NCCc1ccc(OC)c(Cl)c1)c1cccc(NC2=CC(=O)N(C3CCC(=O)NC3=O)C2=O)c1 (stereo not shown)  Dmax (Cereblon/Ikaros; protein degradation, degrader, HiBiT luminescence; Jurkat): 76%
O=c1nc(SCc2cc(F)cc(C(F)(F)F)c2)nc(SCc2ccc3ccccc3n2)[nH]1  decatenated DNA (TOP2A; decatenation; 125 µM, replicate 1): 0%
CCCCCCCNCCc1ccc2[nH]cnc2c1  ATPase activity (ATP2A2 (Sus scrofa, UniProt P11607); pig microsomes; concentration not given): no effect
O=C(O)c1ccc([N+](=O)[O-])cc1  current density (BEST2; whole-cell patch clamp; HEK293 transiently expressing channel; concentration not given, membrane potential -40 mV): -41 pA/pF and -147 pA/pF and -113 pA/pF and -103 pA/pF and -120 pA/pF
Cc1nc(CSc2nc(SCc3ccc(C(F)(F)F)cc3)nc(=O)[nH]2)cs1  decatenated DNA (TOP2A; decatenation; 7.8 µM, replicate 2): 97.3%

A few entries again:
CC(C)N(CCC(=O)c1ccc2ccccc2c1)Cc1ccccc1  potency reduction (TGM2 (Homo sapiens, UniProt P21980); enzyme activity, inhibitor; concentration not given, together with: DTT; baseline: without DTT over with DTT): ~300 fold
N[C@@H](CCO)C(=O)O  thermal shift (Uncharacterized protein (Pelagibacter ubique, UniProt Q4FM26); differential scanning fluorimetry; Candidatus Pelagibacter ubique; in-house screen): 5.02 °C and 2.62 °C
O=C(O)c1cc2ccc(C#CC3(O)CCCCC3)cc2n1-c1ccccc1  -TΔS (Microphthalmia-associated transcription factor, residues 1-296 (Homo sapiens, UniProt O75030); isothermal titration calorimetry; 25 °C): 78.7 kJ/mol and 51.5 kJ/mol
O=c1nc(SCc2cc(F)cc(C(F)(F)F)c2)nc(SCc2ccc3ncsc3c2)[nH]1  mean decatenated DNA (TOP2A; decatenation; 15.6 µM): 93.7%
Nc1nc2c(ncn2[C@@H]2O[C@H](COP(=O)(O)O)[C@@H](O)[C@H]2O)c(=O)[nH]1  reaction rate (GUK1 (Homo sapiens, UniProt Q16774, R44A); enzyme activity, NADH-coupled; 15.62 µM): -0.839 s⁻¹ and -0.763 s⁻¹ and -0.827 s⁻¹
